Results gathered from unrelated publications.
A part holds a random share of what one study measured. Substitutions count along the parent as printed.

Set 1
Target: ABI1, truncated, D143A, DHFR fusion (Arabidopsis thaliana)
Method: DHFR PCA, deep sequencing
Medium: yeast
Setting: methotrexate growth selection, single substitutions
Together with: (+)-ABA 0.11 µM
Relative to: wild-type fitted maximum
Reading: higher = stronger binding
Starting sequence: PYL1, truncated, DHFR fusion (Arabidopsis thaliana); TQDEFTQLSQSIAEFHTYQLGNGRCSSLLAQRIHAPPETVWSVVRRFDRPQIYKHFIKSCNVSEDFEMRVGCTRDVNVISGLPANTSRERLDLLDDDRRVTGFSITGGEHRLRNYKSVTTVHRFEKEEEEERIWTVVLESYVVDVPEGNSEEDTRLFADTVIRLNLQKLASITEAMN
Variant	relative binding score
V76M	3.01%
K54I	-1.88%
E151T	27.6%
Q31N	4.86%
F124P	-4.04%
V78I	56%
N61W	20.8%
V142G	1.81%
R49I	3.52%
A170Y	-34.8%

Set 2
Target: Histone acetyltransferase KAT6A, winged helix 1, GST fusion (KAT6A, Homo sapiens, UniProt Q92794, residues 1-85)
Method: protein binding microarray
Molecule type: double-stranded DNA, one strand shown
Medium: in vitro
Tested at: not given
Setting: 8-mer, flanks averaged, mean of 2 arrays, mostly near background
Relative to: not given
Reading: higher = stronger binding
Construct (chain): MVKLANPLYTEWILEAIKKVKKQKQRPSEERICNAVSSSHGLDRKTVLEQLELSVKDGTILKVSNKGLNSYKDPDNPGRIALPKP
Strand	E-score
AAATTTAA	-0.227
TGTGGCAA	-0.0429
AGTTTAGC	-0.0463
GGTCGGAC	0.151
CGGTAACA	0.272
CTAGCTCA	-0.225
ACGTGGAA	-0.0683
ACAAATGT	-0.31

Set 3
Target: CCND1, cyclin fold, Cln2 fusion (human)
Method: yeast growth competition, sequencing
Medium: yeast
Setting: strong parent motif
Relative to: not given
Reading: higher = stronger binding
Starting sequence: INSM1 docking peptide (human); PKAIRKLHFEDEV
Variant	normalised enrichment score
PCAIRKLHFEDEV [K2C]	5.07
PKEIRKLHFEDEV [A3E]	0.475
PKAIRKLHFEDNV [E12N]	3.84
PKAIRKLHFEPEV [D11P]	3.14
PKAIRLLHFEDEV [K6L]	2.34
PKAIRKLHFEDDV [E12D]	5.13
PKAIRKVHFEDEV [L7V]	0.264
PKAIRKLFFEDEV [H8F]	4.79
PKAWRKLHFEDEV [I4W]	0.28
PKAMRKLHFEDEV [I4M]	4.16

Mixed results
Substance	target	test	system	conditions	scale	quantity	value
PhoQ, residues 284 288 289 292 302 303 SQSLSM	PhoP, residues 12 14 15 18 19 VQGLL (Escherichia coli, UniProt P23836)	Sort-seq, item: YFP reporter	E. coli	PhoQ-PhoP variant library, together with: 10 µM Mg2+	relative to: high Mg2+ state, higher = stronger signaling	fold induction	15.8
